Experimental data of several laboratories.
Protocols differ between the studies behind these lines.
Organism: Pseudomonas aeruginosa

With `CCCCCCCCCCCCCC(=O)N[C@H](CCN)C(=O)N[C@H](C(=O)N[C@@H](CCN)C(=O)N[C@@H](CC(C)C)C(=O)N[C@@H](CCN)C(=O)N[C@H](Cc1ccccc1)C(=O)N[C@@H](CC(C)C)C(=O)N[C@@H](CCN)C(=O)N[C@H](Cc1ccc(O)cc1)C(=O)N[C@H](C(=O)N[C@@H](CC(=O)O)C(=O)O)C(C)C)[C@@H](C)O` the MIC was 4 µg/mL (broth microdilution; BNCC 186070).
For `CC(C)C[C@@H]1NC(=O)[C@H](CCCCN)NC(=O)CSC[C@@H](C(=O)N[C@@H](CCCCN)C(N)=O)NC(=O)[C@H](CC(C)C)NC(=O)[C@H](CC(C)C)NC(=O)[C@H](CC(C)C)NC(=O)[C@@H]2CSCC(=O)N[C@@H](CCCCN)C(=O)N[C@@H](CC(C)C)C(=O)N[C@@H](CCCCN)C(=O)N[C@@H](CCCCNC(=O)[C@H](CCCCN)NC1=O)C(=O)N[C@@H](CCCCN)C(=O)N[C@@H](CC(C)C)C(=O)N[C@@H](CC(C)C)C(=O)N2`, the MIC was 32 µg/mL (PAO1; 18 h).
`CC[C@H](C)[C@H](NC(=O)[C@@H](NC(=O)[C@H](CCCCN)NC(=O)[C@H](CC(=O)O)NC(=O)[C@H](CCCCN)NC(=O)[C@H](Cc1ccccc1)NC(=O)[C@H](Cc1ccccc1)NC(=O)[C@H](CO)NC(=O)[C@H](CCCCN)NC(=O)[C@H](CCSC)NC(=O)[C@H](CCCCN)NC(=O)[C@H](CCCCN)NC(=O)[C@H](Cc1c[nH]c2ccccc12)NC(=O)[C@@H](N)Cc1ccccc1)C(C)C)C(=O)N1CCC[C@H]1C(=O)N[C@@H](CCCCN)C(=O)N[C@H](C(=O)N[C@@H](CCC(N)=O)C(=O)N[C@@H](CCC(N)=O)C(=O)N[C@@H](C)C(=O)N[C@@H](Cc1ccc(O)cc1)C(=O)N[C@@H](CO)C(=O)N[C@@H](CC(C)C)C(=O)N[C@@H](Cc1ccc(O)cc1)C(=O)N[C@@H](CC(N)=O)C(=O)N[C@@H](CCCCN)C(=O)N[C@@H](CC(C)C)C(=O)N[C@@H](CCC(N)=O)C(=O)N[C@@H](Cc1c[nH]cn1)C(=O)N[C@@H](CCCCN)C(=O)N[C@@H](CC(C)C)C(N)=O)C(C)C` has an MIC of 1.56 to 6.25 µM (broth microdilution; ATCC 27853).
The MIC of `CC(C)C[C@@H]1NC(=O)[C@H](CCCCN)NC(=O)CSC[C@@H]2NC(=O)[C@H](CC(C)C)NC(=O)[C@H](CC(C)C)NC(=O)[C@H](CCCCN)NC(=O)[C@H](CCCCNC(=O)[C@H](CCCCN)NC1=O)NC(=O)[C@H](CCCCN)NC(=O)[C@H](CC(C)C)NC(=O)[C@H](CCCCN)NC(=O)CSC[C@@H](C(=O)N[C@@H](CCCCN)C(N)=O)NC(=O)[C@H](CC(C)C)NC(=O)[C@H](CC(C)C)NC(=O)[C@H](CC(C)C)NC2=O` is reported as 256 µg/mL (PAO1; 18 h).
`N=C(N)NCCC[C@@H]1NC(=O)[C@H](CCCNC(=N)N)NC(=O)[C@H](CCCNC(=N)N)NC(=O)[C@H](CCCNC(=N)N)NC(=O)[C@H](Cc2c[nH]c3ccccc23)NC(=O)[C@H](CCCNC(=N)N)NC(=O)[C@H](CCCNC(=N)N)NC(=O)[C@@H](N)CCCn2cc(nn2)C[C@@H](C(N)=O)NC1=O` has an MIC of 250 µg/mL (ATCC 27853; 24 h, 37 °C).
`CCCCCCCC[C@@H]1NC(=O)[C@@H](Cc2ccccc2)NC(=O)[C@H](CCN)NC(=O)[C@@H](NC(=O)[C@H](CCN)NC(=O)[C@@H](NC(=O)[C@H](CCN)NC(=O)c2ccc(-c3ccccc3)cc2)[C@@H](C)O)CCNC(=O)[C@H]([C@@H](C)O)NC(=O)[C@H](CCN)NC(=O)[C@H](CCN)NC1=O` has an MIC of 4 µg/mL (broth microdilution; polymyxin-resistant clinical isolate).
For `CC[C@H](C)[C@H](NC(=O)[C@H](CCCCN)NC(=O)[C@H](CCC(=O)O)NC(=O)[C@H](CCCCN)NC(=O)[C@H](CO)NC(=O)[C@H](CCCCN)NC(=O)[C@H](CCCNC(=N)N)NC(=O)[C@H](Cc1ccccc1)NC(=O)[C@H](Cc1ccccc1)NC(=O)[C@H](CC(=O)O)NC(=O)CNC(=O)[C@H](CC(C)C)NC(=O)[C@@H](N)CC(C)C)C(=O)NCC(=O)N[C@@H](CCCCN)C(=O)N[C@@H](CCC(=O)O)C(=O)N[C@@H](Cc1ccccc1)C(=O)N[C@@H](CCCCN)C(=O)N[C@@H](CCCNC(=N)N)C(=O)N[C@H](C(=O)N[C@H](C(=O)N[C@@H](CCC(N)=O)C(=O)N[C@@H](CCCNC(=N)N)C(=O)N[C@H](C(=O)N[C@@H](CCCCN)C(=O)N[C@@H](CC(=O)O)C(=O)N[C@@H](Cc1ccccc1)C(=O)N[C@@H](CC(C)C)C(=O)N[C@@H](CCCNC(=N)N)C(=O)N[C@@H](CC(N)=O)C(=O)N[C@@H](CC(C)C)C(=O)N[C@H](C(=O)N1CCC[C@H]1C(=O)N[C@@H](CCCNC(=N)N)C(=O)N[C@H](C(=O)N[C@@H](CCC(=O)O)C(=O)N[C@@H](CO)C(=O)O)[C@@H](C)O)C(C)C)[C@@H](C)CC)C(C)C)[C@@H](C)CC`, the MIC was 8 µM (PAO1 mla transposon insertion mutants, RPMI with 5% LB).
For `CC[C@H](C)[C@H](NC(=O)[C@H](CC(=O)O)NC(=O)[C@H](Cc1ccccc1)NC(=O)[C@H](CC(C)C)NC(=O)CN)C(=O)N[C@H](C(=O)N[C@@H](CCCCN)C(=O)N[C@@H](CCCCN)C(=O)N[C@H](C(=O)N[C@@H](CC(C)C)C(=O)N[C@@H](CCCCN)C(=O)N[C@@H](CC(C)C)C(=O)N[C@@H](CC(C)C)C(=O)N[C@@H](CCCCN)C(N)=O)C(C)C)C(C)C`, the MIC was > 20 µM (ATCC 19606, CAMHB; 18 h, 37 °C).
With `CC[C@H](C)[C@H](NC(=O)[C@H](CCCCN)NC(=O)[C@@H]1CCCN1C(=O)[C@@H](NC(=O)[C@H](CC(C)C)NC(=O)[C@H](CCCCN)NC(=O)[C@H](CC(C)C)NC(=O)[C@@H](NC(=O)[C@H](CO)NC(=O)CNC(=O)[C@H](Cc1ccccc1)NC(=O)[C@@H](N)Cc1ccccc1)C(C)C)[C@@H](C)CC)C(=O)N[C@@H](CC(C)C)C(N)=O` the MIC was > 100 µM (broth microdilution).
For `CCCCCCCC(O)CC(=O)N[C@H](CCN)C(=O)N[C@H]1CCNC(=O)[C@H](CC(C)C)NC(=O)[C@H](CCN)NC(=O)[C@H](CCN)NC(=O)[C@H](CC(C)C)NC(=O)[C@@H](CC(C)C)NC(=O)[C@H](CCN)NC1=O` (stereo partly drawn), the MIC was 2 µg/mL (broth microdilution; FADDI-PA070, polymyxin resistant, CAMHB; 18 h, 37 °C).
The MIC of `CC(C)C[C@H](NC(=O)[C@H](CCCCN)NC(=O)[C@H](CCCCNC(=O)[C@H](CC(C)C)NC(=O)[C@H](CCCCN)NC(=O)[C@H](CCCCNC(=O)[C@H](CC(C)C)NC(=O)[C@H](CCCCN)NC(=O)[C@H](CCCCNC(=O)[C@H](CC(C)C)NC(=O)[C@@H](N)CCCCN)NC(=O)[C@H](CC(C)C)NC(=O)[C@@H](N)CCCCN)NC(=O)[C@H](CC(C)C)NC(=O)[C@H](CCCCN)NC(=O)[C@H](CCCCNC(=O)[C@H](CC(C)C)NC(=O)[C@@H](N)CCCCN)NC(=O)[C@H](CC(C)C)NC(=O)[C@@H](N)CCCCN)NC(=O)[C@H](CC(C)C)NC(=O)[C@H](CCCCN)NC(=O)[C@H](CCCCNC(=O)[C@H](CC(C)C)NC(=O)[C@H](CCCCN)NC(=O)[C@H](CCCCNC(=O)[C@H](CC(C)C)NC(=O)[C@@H](N)CCCCN)NC(=O)[C@H](CC(C)C)NC(=O)[C@@H](N)CCCCN)NC(=O)[C@H](CC(C)C)NC(=O)[C@H](CCCCN)NC(=O)[C@H](CCCCNC(=O)[C@H](CC(C)C)NC(=O)[C@@H](N)CCCCN)NC(=O)[C@H](CC(C)C)NC(=O)[C@@H](N)CCCCN)C(N)=O` is reported as 0.44 µM (PAO1, LB medium).
The MIC of `CC(C)[C@H](NC(=O)[C@H](CCCNC(=N)N)NC(=O)[C@H](CCCNC(=N)N)NC(=O)[C@@H](NC(=O)[C@H](C)NC(=O)[C@H](CC(N)=O)NC(=O)[C@H](CCCNC(=N)N)NC(=O)[C@@H](NC(=O)[C@H](CCCNC(=N)N)NC(=O)[C@H](CCCNC(=N)N)NC(=O)[C@@H](NC(=O)[C@@H](NC(=O)[C@H](CCCNC(=N)N)NC(=O)[C@H](CCCNC(=N)N)NC(=O)[C@H](Cc1c[nH]c2ccccc12)NC(=O)[C@H](Cc1c[nH]c2ccccc12)NC(=O)CN)[C@@H](C)O)C(C)C)C(C)C)C(C)C)C(=O)O` is reported as 16 µg/mL (clinical strain 103; 18 h, 37 °C).

Excerpt of the above:
The MIC of `CC(C)C[C@H](NC(=O)[C@H](CCCCN)NC(=O)[C@H](CCCCNC(=O)[C@H](CC(C)C)NC(=O)[C@H](CCCCN)NC(=O)[C@H](CCCCNC(=O)[C@H](CC(C)C)NC(=O)[C@H](CCCCN)NC(=O)[C@H](CCCCNC(=O)[C@H](CC(C)C)NC(=O)[C@@H](N)CCCCN)NC(=O)[C@H](CC(C)C)NC(=O)[C@@H](N)CCCCN)NC(=O)[C@H](CC(C)C)NC(=O)[C@H](CCCCN)NC(=O)[C@H](CCCCNC(=O)[C@H](CC(C)C)NC(=O)[C@@H](N)CCCCN)NC(=O)[C@H](CC(C)C)NC(=O)[C@@H](N)CCCCN)NC(=O)[C@H](CC(C)C)NC(=O)[C@H](CCCCN)NC(=O)[C@H](CCCCNC(=O)[C@H](CC(C)C)NC(=O)[C@H](CCCCN)NC(=O)[C@H](CCCCNC(=O)[C@H](CC(C)C)NC(=O)[C@@H](N)CCCCN)NC(=O)[C@H](CC(C)C)NC(=O)[C@@H](N)CCCCN)NC(=O)[C@H](CC(C)C)NC(=O)[C@H](CCCCN)NC(=O)[C@H](CCCCNC(=O)[C@H](CC(C)C)NC(=O)[C@@H](N)CCCCN)NC(=O)[C@H](CC(C)C)NC(=O)[C@@H](N)CCCCN)C(N)=O` is reported as 0.44 µM (PAO1, LB medium).
